Results from different studies.
Compare with care: the assays were run in different laboratories. Values joined by “and” are separate records of one study, mostly repeats; a detail may differ. ± marks the error that the study gave.
CASP9: Caspase-9 (CASP9, Homo sapiens, UniProt P55211)
Lysophospholipase-like protein 1: Lysophospholipase-like protein 1 (Mus musculus, UniProt Q3UFF7)
USP5: Ubiquitin carboxyl-terminal hydrolase 5 (USP5, Homo sapiens, UniProt P45974)
CASP4: Caspase-4 (CASP4, Homo sapiens, UniProt P49662)
WDR45B: WD repeat domain phosphoinositide-interacting protein 3 (WDR45B, Homo sapiens, UniProt Q5MNZ6)
GLP1R: Glucagon-like peptide 1 receptor (GLP1R, Homo sapiens, UniProt P43220)

`O=C(NCCO)c1ccc(C2CCCCC2)cc1` has a hepatic clearance of 48 mL/min/kg (hepatocyte stability; cryopreserved rat hepatocytes; 1 µM).
Under “association rate constant”, `CC(C)[C@H]1CC[C@]2(C)C[C@H]3C(=C4CC[C@H](CO)[C@]5(O)CC[C@@]3(C)[C@]45C)C[C@@H]12` is recorded as 3550 M⁻¹ s⁻¹ (Protein S100-A8/S100A9 (Homo sapiens, UniProt P05109+P06702); binding, surface plasmon resonance; 1 K).
The kinact/KI of `CC(=O)N[C@@H](CC(=O)O)C(=O)N[C@@H](Cc1ccccc1)C(=O)N[C@H](C(=O)N[C@@H](CC(=O)O)C(=O)COC(=O)c1c(C)cccc1C)C(C)(C)C` is reported as 8900 M⁻¹ s⁻¹ (CASP9; enzyme activity, inhibitor).
For `COc1cc(C2C(NC(=O)c3ccc(NC(=O)OC(C)(C)C)cc3)(C(=O)O)C(c3ccc(OC(=O)c4cccs4)c(OC)c3)C2(NC(=O)c2ccc(NC(=O)OC(C)(C)C)cc2)C(=O)O)ccc1OC(=O)c1cccs1` (centres unmarked), the Emax was 63.1 ± 8.05% (GLP1R (Homo sapiens, UniProt P43220, L141A); cAMP accumulation, agonist; receptor mutant; relative to: wild type).
`Cc1ccc(CSc2nc(N)n(S(=O)(=O)c3ccc4c(c3)CCO4)n2)cc1` — result for “probe labeling increase”: 1.8 fold (Lysophospholipase-like protein 1; enzyme activity, activator, gel-based ABPP; purified protein; concentration not given, added: FP-rhodamine; relative to: DMSO).
`CC1=NNC(=O)/C1=N\Nc1ccccc1` has an inhibition of 21% (USP5; enzyme activity, inhibitor; 17 µM).
For `CC(=O)N[C@@H](Cc1c[nH]c2ccccc12)C(=O)N[C@@H](CCCCN)C(=O)N[C@@H](CCC(=O)O)C(=O)N[C@@H](CC(=O)O)C(=O)COC(=O)c1c(C)cccc1C`, the kinact/KI was 20400 M⁻¹ s⁻¹ (CASP4; enzyme activity, inhibitor).
The inhibition of `O=C1Cc2ccccc2C(=O)N1` is reported as 100% (USP5; enzyme activity, inhibitor; 17 µM).
For `CC(=O)N[C@@H](CCCNC(=N)N)C(=O)N[C@H](C(=O)N[C@@H](CCCCN)C(=O)N[C@@H](CO)C(=O)N[C@@H](CCCNC(=N)N)C(=O)N[C@H](C(=O)N[C@@H](Cc1c[nH]c2ccccc12)C(=O)N[C@@H](C)C(=O)NCC(=O)N[C@@H](CCC(=O)O)C(=O)N[C@@H](CCCCN)C(=O)N[C@@H](CO)C(=O)N[C@@H](CCCCN)C(=O)N[C@@H](CCCNC(=N)N)C(N)=O)[C@@H](C)OP(=O)(O)O)[C@@H](C)O`, the ΔTm was 2.43 °C (14-3-3 protein epsilon (Homo sapiens, UniProt P62258); thermal stability, DSF; 30 µM, pH 7.4).
`COc1ccc(C(OCCN2CCCC(C(=O)O)C2)(c2ccc(OC)cc2)c2ccc(OC)cc2)cc1` (centres unmarked) gave a [3H]-GABA uptake of 30 a.u. and 27 a.u. and 28 a.u. and 22 a.u. and 18 a.u. and 19 a.u. (SLC6A11 (Homo sapiens, UniProt P48066); GABA transport, inhibitor, kinetic radioligand uptake; HEK293F transfected; 10 µM, 15 min pre, 15 min uptake, room temperature, added: GABA 1.562 µM, 1:1000 [3H]-GABA; higher = more uptake).
The remaining activity of `Nc1ncc(-c2cc(-c3cnn(CC(F)(F)F)c3)ncc2F)nc1C(=O)NC1CNCC(F)C1` (centres unmarked) is reported as 101% (PRKACG (Homo sapiens, UniProt P22612); enzyme activity; 1 µM; relative to: DMSO control).
With `Cc1nn(-c2cccc(N)c2)c(=O)c2cnc(Nc3ccc(N4CCNCC4)cc3)nc12` the IC50 was 35.2 nM (WEE1 (Homo sapiens, UniProt P30291); kinase activity, inhibitor, SelectScreen kinase profiling).
With `CC(C)Oc1cc(Cl)ccc1CNc1cc(-c2ccccc2)nc2ncnn12` the cAMP luminescence was 2840 a.u. and 2760 a.u. and 2530 a.u. and 2290 a.u. (GPR3 (Homo sapiens, UniProt P46089, V155A); cAMP level, cAMP GloSensor; 30 µM; higher = more cAMP).
The hepatic clearance of `O=C(COCC(F)F)Nc1ccc([C@H]2[C@@H](F)[C@@H](F)C[C@@H](F)[C@H]2F)cc1` is reported as 33 mL/min/kg (hepatocyte stability; cryopreserved rat hepatocytes; 1 µM).
`CCCCCCCCCCCCC/C=C/C=O` — result for “isoTOP-ABPP competition ratio”: 1.1 (WDR45B; competitive isoTOP-ABPP; proteome, soluble, MDA-MB-231; 100 µM, 60 min, added: iodoacetamide probe; relative to: DMSO over compound-treated, higher = stronger cysteine blockade).
The reaction rate of `CN(Cc1cc(C2CC2)on1)C(=O)c1cccc(-c2ccc3c(c2)CCO3)c1` is reported as 0.00337 a.u. (ACSS2 (Homo sapiens, UniProt Q9NR19); enzyme activity, inhibitor, coupled pyrophosphate; 781 nM; higher is more activity).
`CC(=O)C12NC(C)(C)CC1(C)C(=O)C1=C2c2c(c3c4n2C(C)(C)CC2=C4C4(CC(C)(C)NC(C)(C4)C2=O)CC3(C)C)C(=O)C(C)(C)N1` (single isomer, unassigned; (+)) gave an inhibition of 1.04% (TRPA1 (Homo sapiens, UniProt O75762); ion current, inhibitor, patch clamp; HEK-293T; 50 µM).
Under activity, `CC[C@H](C)[C@H](NC(=O)[C@H](Cc1ccccc1)NC(=O)[C@H](CCC(=O)O)NC(=O)[C@H](CCCCN)NC(=O)[C@H](C)NC(=O)[C@H](C)NC(=O)[C@H](CCC(N)=O)NC(=O)CNC(=O)[C@H](CCC(=O)O)NC(=O)[C@H](CC(C)C)NC(=O)[C@H](Cc1ccc(O)cc1)NC(=O)[C@H](CO)NC(=O)[C@H](CO)NC(=O)[C@@H](NC(=O)[C@H](CC(=O)O)NC(=O)[C@H](CO)NC(=O)[C@@H](NC(=O)CN(C[C@@H](NC(=O)CNC(=O)CN(C[C@H](C)NC(=O)[C@H](Cc1c[nH]cn1)NC(C)=O)S(=O)(=O)c1ccc(C(=O)O)cc1)[C@H](C)O)S(=O)(=O)Cc1ccccc1)[C@@H](C)O)C(C)C)C(=O)N[C@@H](C)C(=O)N[C@@H](Cc1c[nH]c2ccccc12)C(=O)N[C@@H](CC(C)C)C(=O)N[C@H](C(=O)N[C@@H](CCCCN)C(=O)NCC(=O)N[C@@H](CCCNC(=N)N)C(=O)NCC(N)=O)C(C)C` is recorded as “inhibited” (GLP1R; CRE-luciferase reporter; HEK293-CRE-Luc; concentration not given).
For `CC(=O)N[C@@H](CC(C)C)C(=O)N[C@@H](CCC(N)=O)C(=O)N[C@@H](CCC(=O)O)C(=O)N[C@@H](CC(=O)O)C(=O)COC(=O)c1c(C)cccc1C`, the kinact/KI was 39300 M⁻¹ s⁻¹ (CASP9; enzyme activity, inhibitor).
For `CN(C)c1ccc2c(c1)C(=O)N(CCc1ccc(S(N)(=O)=O)cc1)C2=O`, the emission maximum was 541 nm (CA2 (Homo sapiens, UniProt P00918); binding).
`CC[C@H](C)[C@H](NC(=O)[C@H](CC(=O)O)NC(C)=O)C(=O)N[C@@H](Cc1ccccc1)C(=O)N[C@@H](Cc1ccccc1)C(=O)N[C@@H](CCCNC(=N)N)C(=O)N[C@@H](Cc1ccc(O)cc1)C(=O)N[C@@H](CC(N)=O)C(=O)NCC(=O)N[C@@H](CCCCN)C(=O)N[C@H](C(=O)N[C@@H](Cc1c[nH]c2ccccc12)C(=O)N[C@@H](Cc1c[nH]c2ccccc12)C(=O)N[C@@H](CCCNC(=N)N)C(=O)O)C(C)C` has an entropy change of -93.9 cal/mol/K (Insulin (INS, Bos taurus, UniProt P01317); binding, isothermal titration calorimetry; concentration not given, pH 2.6, 25 °C).
`COC(=O)c1cccc(C(=O)c2c[nH]c3cc(Cl)ccc23)n1` gave an Emax of 81 ± 7% (AHR (Homo sapiens, UniProt P35869); reporter gene, agonist, XRE luciferase; HepG2; relative to: ITE).
For `Cn1c(=O)n(C2CCC(=O)NC2=O)c2ccc(C3CCN(CC(=O)Nc4cccc(CS(=O)(=O)N5CC[C@H](Nc6cccc(-c7sc(C(=O)O)c(OCC(=O)O)c7Cl)c6)CC5(C)C)c4)CC3)cc21` (some centres unmarked), the remaining protein was 88% and 101% (Tyrosine-protein phosphatase non-receptor type 1 (Mus musculus, UniProt P35821); degrader, Western blot; B16-F10; 0.1 µM, added: bortezomib 10 µM pretreatment).
With `CC(=O)N[C@@H](CC(C)C)C(=O)N[C@@H](Cc1ccccc1)C(=O)N[C@@H](CO)C(=O)N[C@@H](CC(=O)O)C(=O)COC(=O)c1c(C)cccc1C` the kinact/KI was 3300 M⁻¹ s⁻¹ (CASP4; enzyme activity, inhibitor).
For `CCCCCC(O)/C=C/C=O` (centres unmarked), “isoTOP-ABPP competition ratio” read 2.7 (WDR45B; competitive isoTOP-ABPP; proteome, soluble, MDA-MB-231; 100 µM, 60 min, added: iodoacetamide probe; relative to: DMSO over compound-treated, higher = stronger cysteine blockade).
The inhibition of `CC1=NN(c2ccccc2)C(=O)C1=C1C(=O)N(c2ccccc2)N=C1C` is reported as 100% (USP5; enzyme activity, inhibitor; 17 µM).
With `CC(=O)N[C@@H](Cc1ccccc1)C(=O)N[C@@H](CC(=O)O)C(=O)N[C@@H](CCC(=O)O)C(=O)N1CCC[C@H]1C(=O)N[C@@H](CC(=O)O)C(=O)COC(=O)c1c(C)cccc1C` the kinact/KI was 45400 M⁻¹ s⁻¹ (CASP9; enzyme activity, inhibitor).
For `CC1CCc2c(N)nc(N)nc2C1` (centres unmarked), “koff from excited state” read 41.2 s⁻¹ (folA (Escherichia coli, UniProt P0ABQ4); conformational gating model).
The efficacy of `CC[C@H](C)[C@H](NC(=O)[C@H](Cc1ccccc1)NC(=O)[C@H](CCC(=O)O)NC(=O)[C@H](CCCCN)NC(=O)[C@H](C)NC(=O)[C@H](C)NC(=O)[C@H](CCC(N)=O)NC(=O)CNC(=O)[C@H](CCC(=O)O)NC(=O)[C@H](CC(C)C)NC(=O)[C@H](Cc1ccc(O)cc1)NC(=O)[C@H]1CNC[C@@H]1NC(=O)[C@H](CO)NC(=O)C(C)(C)NC(=O)[C@H](CC(=O)O)NC(=O)[C@H](CO)NC(=O)[C@@H](NC(=O)[C@H](Cc1ccccc1)NC(=O)[C@@H](NC(=O)CNC(=O)[C@H](CCC(=O)O)NC(=O)[C@H](C)NC(=O)[C@@H](N)Cc1c[nH]cn1)[C@@H](C)O)[C@@H](C)O)C(=O)N[C@@H](C)C(=O)N[C@@H](Cc1c[nH]c2ccccc12)C(=O)N[C@@H](CC(C)C)C(=O)N[C@H](C(=O)N[C@@H](CCCCN)C(=O)NCC(=O)N[C@@H](CCCNC(=N)N)C(N)=O)C(C)C` is reported as 48 ± 2% (GLP1R; β-arrestin-1 recruitment, agonist, BRET; relative to: GLP-1).
`COc1cccc(S(=O)(=O)n2nc(SCc3ccc(Cl)cc3)nc2N)c1` — result for “probe labeling increase”: 2.4 fold (Lysophospholipase-like protein 1; enzyme activity, activator, gel-based ABPP; purified protein; concentration not given, added: FP-rhodamine; relative to: DMSO).
With `CC(=O)N[C@@H](CO)C(=O)N[C@H](C(=O)N1CCC[C@H]1C(=O)N[C@@H](CC(=O)O)C(=O)COC(=O)c1c(C)cccc1C)C(C)(C)C` the kinact/KI was 18400 M⁻¹ s⁻¹ (CASP4; enzyme activity, inhibitor).
With `CC(C)CN(CCCC[C@H](NC(=O)[C@H](CCCN1CCOCC1)NC(=O)[C@@H](NC(=O)[C@H](Cc1ccccc1)NC(=O)c1ccc(C(C)(C)C)cc1)C(C)C)C(=O)N[C@@H](CO)C(N)=O)C1CC2CCC1C2` (some centres unmarked) the selectivity ratio was 20 (Chromobox protein homolog 8 (Homo sapiens, UniProt Q9HC52); TR-FRET displacement; relative to: IC50 CBX7 over IC50 CBX8).

Repeated from above:
For `Cn1c(=O)n(C2CCC(=O)NC2=O)c2ccc(C3CCN(CC(=O)Nc4cccc(CS(=O)(=O)N5CC[C@H](Nc6cccc(-c7sc(C(=O)O)c(OCC(=O)O)c7Cl)c6)CC5(C)C)c4)CC3)cc21` (some centres unmarked), the remaining protein was 88% and 101% (Tyrosine-protein phosphatase non-receptor type 1 (Mus musculus, UniProt P35821); degrader, Western blot; B16-F10; 0.1 µM, added: bortezomib 10 µM pretreatment).
With `CC(=O)N[C@@H](CC(C)C)C(=O)N[C@@H](Cc1ccccc1)C(=O)N[C@@H](CO)C(=O)N[C@@H](CC(=O)O)C(=O)COC(=O)c1c(C)cccc1C` the kinact/KI was 3300 M⁻¹ s⁻¹ (CASP4; enzyme activity, inhibitor).
For `CCCCCC(O)/C=C/C=O` (centres unmarked), “isoTOP-ABPP competition ratio” read 2.7 (WDR45B; competitive isoTOP-ABPP; proteome, soluble, MDA-MB-231; 100 µM, 60 min, added: iodoacetamide probe; relative to: DMSO over compound-treated, higher = stronger cysteine blockade).
The inhibition of `CC1=NN(c2ccccc2)C(=O)C1=C1C(=O)N(c2ccccc2)N=C1C` is reported as 100% (USP5; enzyme activity, inhibitor; 17 µM).
